Assay results gathered from unrelated publications.
Protocols differ between the studies behind these lines. Several values in a cell are separate wells, animals, samples, runs or records. ± marks the error that the study gave.

| SMILES | test | system | conditions | scale | measurement | value |
| --- | --- | --- | --- | --- | --- | --- |
| O=C(/C=C/c1ccc(O)c(O)c1/C=C/c1ccc(O)c(O)c1)O[C@H](Cc1ccc(O)c(O)c1)C(=O)O | – | isolated myocardium | 10 µM | – | maximal dP/dt | 1270 mmHg/s |
| C=CCn1c(=O)c2cnc(Nc3ccc(N4CCN(C)CC4)cc3)nc2n1-c1ccc2c(n1)[C@@](O)(CC)CC2 | – | A-427 xenograft, NOD/SCID mouse | 40 mg/kg once daily | – | tumour growth inhibition | 75% |
| O=C(O)CNC(=O)Cc1ccccc1 | – | ventricular cardiomyocytes, C57BL/6 mouse | dose not given, 0.352 s | – | sarcomere length | 1.72 µm |
| CC(C)C[C@@H](C=O)NC(=O)[C@H](CC(C)C)NC(=O)[C@H](CC(C)C)NC(=O)OCc1ccccc1 | measured: Ub(G76V)-GFP | – | 2.5 µM | – | degradation rate constant | 0.0029 min⁻¹ |
| N#Cc1ccc2c(c1)[C@H]1CCCN(C(=O)c3ccc4[nH]cnc4c3)[C@H]1C2 | measured: HDL | human | 20 mg once daily, day 28, adjusted mean | reference: placebo | change from baseline | -4.36 mg/dL |
| C[C@@H](NC(=O)N1C(=O)[C@H](Cc2ccnc(N)c2)[C@H]1C(=O)O)C1CCCCC1 | – | human | iv infusion, 0.6 mg/kg/h, 24 h, unit not given | reference: baseline | PT Emax | 1.05 |
| C[C@@H]1CCC[C@H](n2cnc(-c3cc(Cl)ccc3-n3cc(Cl)nn3)cc2=O)c2cc(ccn2)-c2c(cnn2C(F)F)NC1=O | – | pooled normal human plasma | IC1.2× aPTT, STA-PTT reagent | – | concentration for aPTT prolongation | 90 nM |
| NCC(=O)Nc1cncc(-c2nn3c(=O)cc(N4CCNCC4)nc3s2)c1 | ADP-induced platelet aggregation, light transmission aggregometry | human stable CAD patients on aspirin, platelets ex vivo | 0.075 mg/kg, 5 min post dose, with: 20 µM ADP | reference: placebo difference | inhibition of platelet aggregation | 36.7% |
| C[C@@H]1C[C@H]2[C@@H]3CCC4=CC(=O)C=C[C@]4(C)[C@@]3(F)[C@@H](O)C[C@]2(C)[C@@]1(O)C(=O)CO | – | BALB/c mice, oxazolone atopic dermatitis | topical, 20 mg/ear, 480 h, day 20, unit not given | reference: vehicle | ear thickness difference | -0.349 |
| CC(C)[C@H](C(=O)Nc1ccc(C(=O)NO)cc1)c1ccccc1 | volumetric MRI | human, left parieto-occipital meningioma | dose not given, day 834 | reference: baseline | tumour volume change | 54.4% |
| CCOc1cc([C@@H](CS(C)(=O)=O)N2C(=O)c3cccc(NC(C)=O)c3C2=O)ccc1OC | – | Balb/c mice, oxazolone atopic dermatitis | day 14, unit not given | reference: vehicle | ear thickness difference | -0.131 |
| NC(=O)c1cnc2[nH]ccc2c1N[C@@H]1[C@@H]2CC3C[C@H]1C[C@@](O)(C3)C2 | CD8+ effector memory T cells, flow cytometry | Japanese humans, peripheral blood | 60 mg single dose | reference: baseline | percent change | 0.18% |
| CSCCNc1nc(SCCC(F)(F)F)nc2c1ncn2[C@@H]1O[C@H](COP(=O)(O)OP(=O)(O)C(Cl)(Cl)P(=O)(O)O)[C@@H](O)[C@H]1O | platelet aggregation, light transmission aggregometry | human patients, platelet-rich plasma | dose not given, 2 h, with: TRAP 5 µM | – | inhibition | 36.6 ± 33.3% |
| C[C@@H](O)CCOC(=O)C[C@@H](C)O | measured: C10:1 acylcarnitine | human, plasma | 60 min, log2-transformed values | – | metabolite level | -3.37 ± 0.78 µmol/L |
| CCOc1c([C@H](C)n2nc(C)c3c(N)ncnc32)cc(Cl)c(F)c1[C@@H]1CNC(=O)C1 | Olink proximity extension proteomics, measured: TNFRSF9 | human FL or MZL patients, plasma | dose not given, week 8 | reference: baseline | plasma protein level change | -73% |
| Cc1ccc(C(=O)OCc2ccc([C@@H](CN)C(=O)Nc3ccc4cnccc4c3)cc2)c(C)c1 | tonometry | NZW rabbit, magnetic bead-induced ocular hypertension | ocular, 0.02%, 26 h | – | IOP | 34.9 mmHg |
| COc1cc(F)c([C@@H]2CNC(=O)[C@H]2NC(=O)Nc2ccccc2)c(F)c1 | terminal haemodynamics | rat, permanent coronary occlusion MI | 1 mg/kg, 1008 h, 6 weeks post-MI | – | LV dP/dtmax | 5860 ± 707 mmHg/s |
| COc1nc(-c2cc(C)c(N[C@@H](C)c3cc(F)cc(F)c3)nn2)ccc1-n1cnc(C)c1 | measured: Aβ40 | rat Sprague-Dawley male, plasma | oral, 25 mg/kg daily for 9 days, 4 h after dose | reference: vehicle | change in level | 88% |
| N#Cc1ccc(Oc2ccc3c(c2)COB3O)cc1 | – | Balb/c mice, oxazolone atopic dermatitis | day 17, unit not given | reference: vehicle | ear thickness difference | -0.219 |
| CCCN1CCCC[C@H]1C(=O)Nc1c(C)cccc1C | – | Sprague-Dawley rat, male | sciatic nerve injection, 15 mM | – | sensory block | 100 % MPE |
| C[C@H](Oc1ccc(Br)cc1-c1ccon1)C(=O)O | muscle velocity recovery cycle | human, tibialis anterior muscle | 200 mg once daily, last response peak at 30 Hz, multiple ascending dose | – | difference from placebo | 15% |
| Cc1n[nH]c2ccc(-c3cc(OC[C@@H](N)Cc4ccccc4)cnc3-c3ccoc3)cc12 | kinase binding, competitor, MIB/MS competition, measured: ENV7 | Candida albicans cell lysate | 10 µM | reference: DMSO | log2 fold change | -1.89 |

| SMILES | test | system | conditions | scale | measurement | value |
| --- | --- | --- | --- | --- | --- | --- |
| Cn1cc([C@H]2C[C@H]3CSC(N)=N[C@@]3(c3ccc(F)cc3F)CO2)cn1 | – | wild-type mouse, brain | subcutaneous, 3 mg/kg, 3 h | – | Aβ42 level | 0.64 ng/g |
| CO[C@H]1CC[C@H](N2C(=O)CNc3ncc(-c4ccc(C(C)(C)O)nc4)nc32)CC1 | flow cytometry | stimulated monocytes, human, blood | 45 mg single dose, 5 h, mean | reference: baseline | pAKT change from baseline | -56.4% |
| O=C(OC(C(F)(F)F)C(F)(F)F)N1CCN(Cc2cccc(Oc3ccccc3)c2)CC1 | PET | rhesus monkey, striatum | intravenous, 0.03 mg/kg, pretreatment blocking, with: [18F]T-401 | – | tracer distribution volume | 6.76 mL/cm3 |
| CC(c1cc2ccccc2s1)N(O)C(N)=O (centres unmarked) | measured: 12-HETE | human whole blood | 3 µM, with: Escherichia coli | – | amount | 20200 ± 4420 pg/mL blood |
| COc1ccc(-c2cncc(N[C@@H](C)c3cccc(NC(=O)c4cncc(C)c4)c3)n2)cc1OC | measured: rno-miR-32-5p | rat SU5416/hypoxia model, lung | dose not given | reference: SU5416/hypoxia vehicle | fold change | 0.502 |
| CC(C)NCC(O)c1ccc(O)c(O)c1 (centres unmarked) | – | ventricular cardiomyocytes, C57BL/6 mouse | dose not given, 0.16 s | – | sarcomere length | 1.54 µm |
| Cn1cc(Nc2nccc(-c3ccc4c(c3)CN(C3COC3)CC[C@H]4NC(=O)c3cn(C(C)(C)C)nn3)n2)cn1 | measured: leptin signaling in obesity | splenic B cells, mice | 30 mg/kg, IgD-activated in vivo | reference: vehicle, direction not given | pathway activation z-score | 1.67 |
| N#Cc1ccn2c(-c3ccncc3)c(-c3ccc(F)cc3)nc2c1 | kinase binding, competitor, MIB/MS competition, measured: CAK1 | Candida albicans cell lysate | 1 µM | reference: DMSO | log2 fold change | 0.178 |
| C[C@H]1C[C@H]2CSC(N)=N[C@@]2(c2nc(NC(=O)c3ccc(OC(F)F)cn3)cs2)CO1 | measured: total Aβ | healthy adults, plasma | 125 mg once daily, day 1 | reference: placebo | percent change from baseline | -59.6% |
| O[C@H]1CCCN[C@@H]1CCCn1cnc2c(Cl)c(Cl)ccc21 | ELISA, measured: Pro-C3 | healthy human volunteers, serum | 25 mg, day 1, multiple ascending dose | – | maximum reduction | 26.1% |
| CCCCC1(CCCC)CN(c2ccccc2)c2cc(SC)c(OCC(=O)N[C@@H](C(=O)NCC(=O)O)c3ccccc3)cc2S(=O)(=O)C1 | measured: 7α-hydroxy-4-cholesten-3-one | human, plasma | 20 mg once daily, day 8 | – | plasma C4 | 70 ng/mL |
| N#Cc1ccc2c(-c3ccncc3)c(-c3ccc(F)cc3)nn2c1 | kinase binding, competitor, MIB/MS competition, measured: MKK2 | Candida albicans cell lysate | 1 µM | reference: DMSO | log2 fold change | 0.155 |
| Cc1cn(-c2ccc3n(c2=O)CCN([C@@H](C)[C@@H]2CC[C@H](c4cc(F)c(Cl)cc4C(F)(F)F)O2)C3=O)cn1 | measured: amyloid beta 38 | human, non-elderly, cerebrospinal fluid | 100 mg once daily, 14 days, sampled 336 h | reference: placebo | change from baseline | 8.55% |
| CN(C(=O)n1cnc(-c2ccc[n+]([O-])c2)c1)C1CCCCC1 | measured: OEA | human, plasma | 0.25 mg single dose | – | AUC(0-t) | 214 ng·h/mL |
| OC(CCN1CCCCC1)(c1ccccc1)C1CC2C=CC1C2 (centres unmarked) | resting-state EEG | healthy elderly humans | oral, 2 mg, eyes open, LS mean | – | EEG Beta2-power Pz-O2 | 0.9 µV² |
| C[C@H]1O[C@@H](O[C@H]2CC[C@@]3(C)[C@@H](CC[C@]4(C)[C@@H]3C=C[C@]35OC[C@@]6(CCC(C)(C)C[C@H]63)[C@@H](O)C[C@]54C)[C@]2(C)CO)[C@H](O)[C@@H](O[C@@H]2O[C@H](CO)[C@@H](O)[C@H](O)[C@H]2O)[C@H]1O | Western blot, measured: PGC-1α | chronic-plus-binge ethanol-fed mice, liver | dose not given, dose level -M, unit not given | reference: β-actin | protein level | 1.09 and 0.81 and 1.29 |
| c1ccc(-c2n[nH]cc2-c2ccnc3ccccc23)nc1 | kinase binding, competitor, MIB/MS competition, measured: ENV7 | Candida albicans cell lysate | 100 nM | reference: DMSO | log2 fold change | 1.01 |
| N[C@@H](CC(=O)N1CCn2c(nnc2C(F)(F)F)C1)Cc1cc(F)c(F)cc1F | – | type 2 diabetes patients on metformin, fasting plasma | oral, 100 mg once daily, 28 weeks | – | HDL cholesterol | 48.9 mg/dL |
| CN[C@@H]1COc2c(S(=O)(=O)NC(=O)Nc3c4c(cc5c3CCC5)CCC4)cnn2C1 | measured: IL-18 | human participants, whole blood ex vivo | 450 mg single dose, 336 h, IL-18, circulating, adjusted for, with: LPS/ATP | reference: baseline | inhibition | -48.7% |
| CC[C@H](C)[C@H](NC(=O)[C@H](Cc1ccccc1)NC(=O)[C@H](CCC(=O)O)NC(=O)[C@H](CCCCN)NC(=O)[C@H](C)NC(=O)[C@H](C)NC(=O)[C@H](CCC(N)=O)NC(=O)CNC(=O)[C@H](CCC(=O)O)NC(=O)[C@H](CC(C)C)NC(=O)[C@H](Cc1ccc(O)cc1)NC(=O)[C@H](CO)NC(=O)[C@H](CO)NC(=O)[C@@H](NC(=O)[C@H](CC(=O)O)NC(=O)[C@H](CO)NC(=O)[C@@H](NC(=O)[C@H](Cc1ccccc1)NC(=O)[C@@H](NC(=O)CNC(=O)[C@H](CCC(=O)O)NC(=O)C(C)(C)NC(=O)[C@@H](N)Cc1cnc[nH]1)[C@@H](C)O)[C@@H](C)O)C(C)C)C(=O)N[C@@H](C)C(=O)N[C@@H](Cc1c[nH]c2ccccc12)C(=O)N[C@@H](CC(C)C)C(=O)N[C@H](C(=O)N[C@@H](CCCNC(=N)N)C(=O)NCC(=O)N[C@@H](CCCNC(=N)N)C(=O)NCC(=O)NCC(=O)NCC(=O)NCC(=O)N[C@@H](CO)C(=O)NCC(=O)NCC(=O)NCC(=O)NCC(=O)N[C@@H](CO)C(=O)NCC(=O)NCC(=O)NCC(=O)NCC(=O)N[C@@H](CO)C(=O)NCC(=O)N[C@@H](CSC1CC(=O)N(CCC(=O)NCC(=O)NCCOCCOCCOCCOCCC(=O)N[C@@H](CCCCNC(=O)CC[C@H](NC(=O)CCCCCCCCCCCCCCCCC(=O)O)C(=O)O)C(=O)NCCOCCOCCOCCOCCC(=O)N[C@@H](CCCCNC(=O)CC[C@H](NC(=O)CCCCCCCCCCCCCCCCCCC(=O)O)C(=O)O)C(=O)O)C1=O)C(=O)O)C(C)C (some centres unmarked) | – | db/db mouse | subcutaneous, 100 nmol/kg single, 0 to 96 h | reference: baseline | blood glucose AUC(0-96) | 6980 ± 803% |
| CCc1c(C)nc(-c2ccc(Cl)s2)nc1Nc1ccc(CC(=O)O)cc1 | – | C57BL/6J mouse, MCD diet MASH model, liver | intraperitoneal, 0.3 mg/kg daily, MCD diet 6 weeks, dosed final two weeks | reference: untreated | Ki67-positive hepatocytes | decreased |
| Cc1noc(C)c1-c1cc(C(O)(c2ccccn2)c2ccccn2)c2nc(C3CC3)[nH]c2c1 | measured: CCR2 expression | human, peripheral blood | 9 mg, day 1, 1604 study | – | maximum inhibition | 40% |
